Published values collected from several papers.
Protocols differ between the studies behind these lines. “And” joins repeats or separate records; there may be more than shown. ± gives the spread as reported.

SMILES	assay	test system	conditions	scale	quantity	result
Cc1c(-c2ccc(N3CCc4cccc(C(=O)Nc5nc6ccccc6s5)c4C3)nc2C(=O)O)cnn1CC12CC3CC(CC(C3)C1)C2	–	anaesthetised rat	intravenous infusion, 100 mg/kg, 85 min	relative to: baseline	platelet count	5.4%
CC(C)Cc1ccc(C(C)C(=O)N[C@@H](CCCCNC(=O)CCOCCOCCOCCOCCOCCOCCNC(=O)CN2CCN(CC(=O)[O-])CCN(CC(=O)[O-])CCN(CC(=O)[O-])CC2)C(=O)Nc2cccc3c(C(=O)NCC(=O)N4CC(F)(F)C[C@H]4C#N)ccnc23)cc1.[177Lu+3] (stereo partly drawn)	–	PBS	24 h, 37 °C, 177Lu-labelled	–	radiochemical stability	98.9 ± 1.7%
OCC1OC(n2cnc3c(NCc4ccc(Br)s4)ncnc32)C(O)C1O (stereo not drawn)	–	beagle dog, blood	intravenous, 0.5 mg/kg	–	Vd	16.3 L/kg
CC(C)(O)c1ncc([S@](N)(=O)=NC(=O)Nc2c3c(cc4c2CCC4)CCC3)s1	item: any adverse event	healthy human volunteers	oral, 25 mg twice daily, 14 days, enteric-coated tablet	–	subjects with adverse events	63%
CCCCCCCC(=O)OC[C@H](NC(=O)[C@H](CO)NC(=O)CN)C(=O)N[C@@H](Cc1ccccc1)C(=O)N[C@@H](CC(C)C)C(=O)N[C@@H](CO)C(=O)N1CCC[C@H]1C(=O)N[C@@H](CCC(=O)O)C(=O)N[C@@H](Cc1cnc[nH]1)C(=O)N[C@@H](CCC(N)=O)C(=O)N[C@@H](CCCNC(=N)N)C(=O)N[C@H](C(=O)N[C@@H](CCC(N)=O)C(=O)N[C@@H](CCC(N)=O)C(=O)N[C@@H](CCCNC(=N)N)C(=O)N[C@@H](CCCCN)C(=O)N[C@@H](CCC(=O)O)C(=O)N[C@@H](CO)C(=O)N[C@@H](CCCCN)C(=O)N[C@@H](CCCCN)C(=O)N1CCC[C@H]1C(=O)N1CCC[C@H]1C(=O)N[C@@H](C)C(=O)N[C@@H](CCCCN)C(=O)N[C@@H](CC(C)C)C(=O)N[C@@H](CCC(N)=O)C(=O)N1CCC[C@H]1C(=O)N[C@@H](CCCNC(=N)N)C(=O)O)C(C)C	manual cuff, item: sBP	human, chronic HFrEF patients	intravenous infusion, 0.1 µg/kg/min over 120 min, follow-up day 2-5, median	–	blood pressure	105 mm Hg
CCCCN1C(=O)c2cccc3c(NCCCCCCCCCCN4CCOCC4)ccc(c23)C1=O	–	dichloromethane	–	–	Stokes shift	87 nm
Oc1ccc(Nc2ncnc3[nH]c(/C=C/c4ccccc4)nc23)cc1	HPLC	solution	after 1 h light exposure	–	purity	99%
Cc1[nH]nc2c1N=C(c1ccccc1Cl)c1cnc(N3CCOCC3)cc1N2	–	male beagle dog, plasma	intravenous, 1 mg/kg	–	Vd	2.35 L/kg
CCC1CNC(CC)CN(C(C(=O)[O-])c2ccc(C(=O)[O-])cc2)C(CC)CN(CC(=O)[O-])C(CC)CN1.[Mn+2] (stereo not drawn)	ICP-MS	BALB/c mouse, lung	intravenous, 0.05 mmol/kg, 1440 min, without anaesthesia	–	Mn content	0.3 ± 0.03 µg/g
[11CH3]N1CCC(NC(=O)c2cc(-c3c(O)cc(O)cc3Oc3ccc([N+](=O)[O-])cc3)on2)CC1	–	healthy female Wistar rats, kidneys	intravenous, 60 min	–	standardized uptake value	3 ± 0.7 g/mL
Cc1cc(-c2ccc(C(=O)[C@@H]3CCCC[C@H]3C(=O)Nc3cnn4c3C(=O)NCC4)cc2)[nH]n1	–	human, urine	oral, 200 mg, 0-216 h	relative to: dose	cumulative radioactivity recovery	6.33% and 6.8% and 5.62% and 6.73% and 4.93% and 4.97%
CN(O)C(=O)CCC(=O)NCCCN(CCCCN(CCCNC(=O)CCC(=O)N(C)O)C(=O)CCC(=O)N(C)O)C(=O)CCC(=O)N(C)O.[89Zr]	–	PBS	7 days, pH 7, 37 °C	–	intact compound	97.7 ± 0.8%
C/C(N)=N/C(=N\S(=O)(=O)c1ccc(C(F)(F)F)cc1)N1C[C@H](c2ccccc2)C(c2ccc(Cl)cc2)=N1	–	male C57BL/6 mouse, lung	oral, 10 mg/kg	–	Tmax	1 h
C[C@H](C(=O)O)n1nc(Cn2cc3cc(OCC[18F])c(Cl)cc3n2)c2ccccc2c1=O	PET	C57BL/6 mouse male	40 min	–	brain uptake	0.35 %ID/g
CN1C(=O)[C@@H](Cc2ccc(O)c(I)c2)NC(=O)CNC(=O)[C@H](Cc2ccc3ccccc3c2)NC(=O)[C@H](CCCNC(=N)N)NC(=O)[C@H]1CCCNC(=O)c1ccc(CNC(=O)CN2CCN(CC(=O)O)CCN(CC(=O)O)CCN(CC(=O)O)CC2)cc1 [lutetium-177 labelled]	1	human, extrapolated from mouse, Lower large intestine wall	–	–	total absorbed dose	0.044 mGy/MBq
O=C([O-])CN1CCN(CC(=O)[O-])CCN(C(CO)C(O)CO)CCN(CC(=O)[O-])CC1.[Dy+3] (stereo not drawn)	–	cynomolgus monkey, pons	dose not given, day 5	–	lanthanide concentration	0.034 ± 0.018 nmol/g
N#C[C@@H]1CC(F)(F)CN1C(=O)CNC(=O)c1ccnc2c(NC(=O)[C@@H](N)CCCCNC(=O)CCOCCOCCOCCOCCOCCOCCNC(=O)CN3CCN(CC(=O)[O-])CCN(CC(=O)[O-])CCN(CC(=O)[O-])CC3)cccc12.[177Lu+3]	–	human serum	24 h, 37 °C, 177Lu-labelled	–	radiochemical stability	99 ± 1.5%

SMILES	assay	test system	conditions	scale	quantity	result
CC(=O)N[C@@H](CCCCN)C(=O)N1CCC[C@H]1C(=O)N[C@H](C(=O)N[C@@H](Cc1ccccc1)C(=O)N[C@@H](CCC(N)=O)C(=O)N[C@@H](Cc1ccccc1)C(=O)N[C@@H](CC(C)C)C(=O)N[C@@H](Cc1ccccc1)C(=O)N[C@@H](Cc1c[nH]cn1)C(=O)N[C@@H](CCC(=O)O)C(N)=O)C(C)C	AFM	hydrogel	pH 5.5	–	nanofiber diameter	6.1 ± 0.4 nm
O=c1c(-c2cnn(-c3ccc(Cl)cc3)c2)c(C(F)(F)F)oc2c(O)c(O)ccc12	–	mouse	intraperitoneal, 100 mg/kg, DMSO vehicle	–	plasma clearance	206 mL/min/kg
C=CC(=O)Nc1cc(Nc2nccc(-c3cn(C)c4ccccc34)n2)c(OC)cc1N(C)CCNC	–	human, dried blood spots	270 ng/mL, 30 d, room temperature, high QC level	–	remaining compound	44.3%
CCCCN1C(=O)c2cccc3c(NCCN4CCOCC4)ccc(c23)C1=O	–	methanol	–	–	Stokes shift	81 nm
[2H]C([2H])([18F])Oc1cc(C(=O)OCC2CCN(CCCC)CC2)ccc1N	–	rhesus monkey, arterial plasma	iv, 3.02 min	–	parent radioligand fraction	60.5%
CCCCN1C(=O)c2cccc3c(NCCCCCCCCN4CCOCC4)ccc(c23)C1=O	–	acetonitrile	–	–	fluorescence quantum yield	0.95
Cc1nc(N)nc2c1C(=O)N[C@@H](c1ccc(F)cc1-c1cccc(OCC[18F])n1)C2	HPLC	–	120 min post end of synthesis	–	radiochemical stability	stable
O=C(Nc1cnccc1-c1ccc([18F])cc1)c1ccnc(NC(=O)C2CC2)c1	PET imaging	FVB/NJ mice, both sexes, brain	intravenous, 30 min post-injection, P-gp inhibited, with: tariquidar 15 mg/kg iv, 2 h before	–	SUV	0.4
CCCCN1C(=O)c2cccc3c(NCCCN4CCOCC4)ccc(c23)C1=O	–	chloroform	–	–	Stokes shift	68 nm
C=C(NC(=O)c1csc(-c2nc3c(cc2O)-c2nc(cs2)C(=O)NC(C(C)O)C(=O)NC(=C(C)OC)c2nc(cs2)C(=O)NC2c4nc(cs4)C(=O)NC(COC(=O)c4c5c6c(cccc6n4O)COC(=O)C(OC4CC(C)(O)C(N(C)C)C(C)O4)C2OC5)c2nc-3cs2)n1)C(N)=O (stereo not drawn)	–	cynomolgus monkey, both sexes, plasma	intravenous infusion, 3 mg/kg single dose	–	volume of distribution	1.02 L/kg
O=C1c2sc(-c3ccc(N4CCC(F)C4)nc3F)nc2CCN1c1cccnc1 (stereo not drawn)	–	CD1 mouse, plasma	i.v., dose not given, 0.25 h	–	concentration	170 ng/mL and 142 ng/mL and 164 ng/mL
COc1cccc(OC)c1-c1cc(C(=O)NC2(C(=O)O)C3CC4CC(C3)CC2C4)nn1-c1ccc(C(=O)N(C)CCOCCOCCN(C)C(=O)[C@H](CCCCNC(=O)[C@H](CC(C)C)NC(=O)C2OC2C(=O)O)NC(=O)CN2CCN(CC(=O)[O-])CCN(CC(=O)[O-])CCN(CC(=O)[O-])CC2)cc1C(C)C.[177Lu+3] (mixture of isomers)	–	mouse HT-29 xenograft	72 h, biodistribution	relative to: tumour over stomach	tumour-to-stomach ratio	58.5
CNc1cc(N)c(C(N)=O)c[n+]1C	substrate, item: methylated product	rats, plasma	oral, 30 mg/kg, 0.50 h	–	plasma concentration of product	161 nM and 159 nM
C=CC(=O)Oc1ccc(OC)c(-c2c[nH]c3ncc(-c4cncc(C(=O)N(C)C)c4)cc23)c1	HPLC	acetonitrile/water/DMSO	50 µM, 37 °C, DIPEA 20 eq, with: N-α-acetyl-lysine	–	reactivity half-life	2 to 4 h
COc1cc(-c2nc3ccccc3s2)cc(CN2CCN(Cc3cc(-c4nc5ccccc5s4)cc(OC)c3O)CCN(C(C)C)CC2)c1O	UV-vis spectrophotometric titration	aqueous NaCl 0.1 M	20 µM, 25 °C, pH 3 to 11	–	pKa3	8.5
O=C(Nc1cnccc1-c1ccc([18F])nc1)c1ccnc(NC(=O)C2CC2)c1	–	mice, transgenic, GSK-3β, early-stage, muscle	intravenous, dose not given, 120 min	–	SUV	0.359

Excerpt of the above:
SMILES	assay	test system	conditions	scale	quantity	result
OCC1OC(n2cnc3c(NCc4ccc(Br)s4)ncnc32)C(O)C1O (stereo not drawn)	–	beagle dog, blood	intravenous, 0.5 mg/kg	–	Vd	16.3 L/kg
CC(C)(O)c1ncc([S@](N)(=O)=NC(=O)Nc2c3c(cc4c2CCC4)CCC3)s1	item: any adverse event	healthy human volunteers	oral, 25 mg twice daily, 14 days, enteric-coated tablet	–	subjects with adverse events	63%
CCCCCCCC(=O)OC[C@H](NC(=O)[C@H](CO)NC(=O)CN)C(=O)N[C@@H](Cc1ccccc1)C(=O)N[C@@H](CC(C)C)C(=O)N[C@@H](CO)C(=O)N1CCC[C@H]1C(=O)N[C@@H](CCC(=O)O)C(=O)N[C@@H](Cc1cnc[nH]1)C(=O)N[C@@H](CCC(N)=O)C(=O)N[C@@H](CCCNC(=N)N)C(=O)N[C@H](C(=O)N[C@@H](CCC(N)=O)C(=O)N[C@@H](CCC(N)=O)C(=O)N[C@@H](CCCNC(=N)N)C(=O)N[C@@H](CCCCN)C(=O)N[C@@H](CCC(=O)O)C(=O)N[C@@H](CO)C(=O)N[C@@H](CCCCN)C(=O)N[C@@H](CCCCN)C(=O)N1CCC[C@H]1C(=O)N1CCC[C@H]1C(=O)N[C@@H](C)C(=O)N[C@@H](CCCCN)C(=O)N[C@@H](CC(C)C)C(=O)N[C@@H](CCC(N)=O)C(=O)N1CCC[C@H]1C(=O)N[C@@H](CCCNC(=N)N)C(=O)O)C(C)C	manual cuff, item: sBP	human, chronic HFrEF patients	intravenous infusion, 0.1 µg/kg/min over 120 min, follow-up day 2-5, median	–	blood pressure	105 mm Hg
CCCCN1C(=O)c2cccc3c(NCCCCCCCCCCN4CCOCC4)ccc(c23)C1=O	–	dichloromethane	–	–	Stokes shift	87 nm
Oc1ccc(Nc2ncnc3[nH]c(/C=C/c4ccccc4)nc23)cc1	HPLC	solution	after 1 h light exposure	–	purity	99%
